Experimental data pooled from the literature.
A part holds a random share of what one study measured.

Study 1
Target: Myc proto-oncogene protein, bHLH-zipper, MAX partner unstated (MYC, Homo sapiens, UniProt P01106, residues 368-449)
Sequence of UniProt P01106 (368-449, looked up): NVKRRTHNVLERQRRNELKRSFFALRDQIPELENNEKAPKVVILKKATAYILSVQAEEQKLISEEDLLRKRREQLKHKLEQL
Method: protein-binding microarray
Molecule type: double-stranded DNA, one strand shown
Medium: in vitro
Concentration: not given
Notes: k-mer, scored over probes, only values ≥0.25
Reading: higher = stronger binding
| Oligonucleotide | E-score |
| --- | --- |
| CAACGCAC | 0.268 |
| CGCGCACA | 0.334 |
| CACGCTGG | 0.344 |

Study 2
Target: Sal-like protein 4, full length isoform B (SALL4, Homo sapiens, UniProt Q9UJQ4-2, residues 1-616)
Method: universal PBM
Molecule type: double-stranded DNA, one strand shown
Medium: in vitro
Concentration: not given
Notes: 8-mer, flanks averaged, mean of replicates
Reading: higher = stronger binding
Target sequence (chain): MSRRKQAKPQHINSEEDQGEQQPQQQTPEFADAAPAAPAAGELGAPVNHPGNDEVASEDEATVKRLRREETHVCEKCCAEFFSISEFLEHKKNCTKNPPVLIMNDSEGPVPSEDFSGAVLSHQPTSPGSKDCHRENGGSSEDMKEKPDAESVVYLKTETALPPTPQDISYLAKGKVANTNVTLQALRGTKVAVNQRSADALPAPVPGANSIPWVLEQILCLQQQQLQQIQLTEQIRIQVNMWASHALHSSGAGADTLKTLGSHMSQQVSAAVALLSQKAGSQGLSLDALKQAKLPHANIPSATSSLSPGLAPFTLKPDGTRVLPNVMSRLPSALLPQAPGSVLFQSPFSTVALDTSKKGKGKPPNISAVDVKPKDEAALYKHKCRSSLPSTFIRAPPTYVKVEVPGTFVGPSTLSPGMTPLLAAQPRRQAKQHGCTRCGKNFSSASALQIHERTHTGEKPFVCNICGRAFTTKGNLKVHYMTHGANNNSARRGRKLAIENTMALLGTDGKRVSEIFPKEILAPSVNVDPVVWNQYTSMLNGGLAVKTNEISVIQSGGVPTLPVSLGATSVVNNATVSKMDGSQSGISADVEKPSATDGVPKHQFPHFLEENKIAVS
| Oligonucleotide | E-score |
| --- | --- |
| CTCGACGC | -0.202 |
| GCTAAACC | -0.271 |
| ATCGAACG | -0.0205 |
| GGACGAGA | -0.0637 |
| AGCTTGAC | -0.209 |
| ATATCAGC | 0.182 |
| GTTGGAAA | 0.035 |
| CGTCATTA | 0.0629 |

Study 3
Target: Histone acetyltransferase KAT6A, winged helix 1, GST fusion (KAT6A, Homo sapiens, UniProt Q92794, residues 1-85)
Method: protein binding microarray
Molecule type: double-stranded DNA, one strand shown
Medium: in vitro
Concentration: not given
Notes: 8-mer, flanks averaged, mean of 2 arrays, mostly near background
Reference: not given
Reading: higher = stronger binding
Residues (chain): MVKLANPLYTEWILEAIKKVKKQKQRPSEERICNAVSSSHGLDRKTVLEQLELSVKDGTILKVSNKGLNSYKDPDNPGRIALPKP
| Oligonucleotide | E-score |
| --- | --- |
| ACCAGAAT | -0.0872 |
| CGGTTACC | 0.278 |
| CGCGCAGC | 0.361 |
| AGAGGTCA | -0.0458 |
| ATCCTCTC | -0.251 |

Mixed results
| Molecule | target | test | test system | setting | scale | quantity | value |
| --- | --- | --- | --- | --- | --- | --- | --- |
| PhoQ, residues 284 288 289 292 302 303 SCEHLI | PhoP, residues 12 14 15 18 19 NQGLL (Escherichia coli, UniProt P23836) | Sort-seq, item: YFP reporter | E. coli | PhoQ-PhoP variant library, together with: 10 µM Mg2+ | reference: high Mg2+ state, higher = stronger signaling | fold induction | 6.59 |

Some of these lines once more (study 2):
| Oligonucleotide | E-score |
| --- | --- |
| GCTAAACC | -0.271 |
| ATCGAACG | -0.0205 |
